Experimental data gathered from unrelated publications.
Every numbered part comes from another study and shows a few of its results, in no order.

Study 1
Target: Replicase polyprotein 1ab, nsp13 helicase (rep, Severe acute respiratory syndrome coronavirus 2, UniProt P0DTD1)
Mode: inhibitor
Concentration: 20 µM
`C/N=C(/NC#N)NCCSCc1csc(NC(=N)N)n1` has an inhibition of -4.64%.
`CC(C)(C)C(=O)Oc1ccc(S(=O)(=O)Nc2ccccc2C(=O)NCC(=O)O)cc1` has an inhibition of -7.19%.
For `CC(C)c1cc(CNc2nc(Nc3cc(C4CC4)[nH]n3)cc(N3CCN(C)CC3)n2)on1`, the inhibition was 12.5%.
With `CC(C)OC(=O)c1cc2c(OCC(O)CNC(C)(C)C)cccc2[nH]1` (stereo not drawn) the inhibition was -3.69%.
`O=C1OCCN1/N=C/c1ccc([N+](=O)[O-])o1` has an inhibition of 8.21%.
`O=C(CCCCCCC(=O)Nc1ccccc1)NO` has an inhibition of 6.19%.
With `Cc1cn(C[C@H](N)C(=O)O)c(=O)n(Cc2ccsc2C(=O)O)c1=O` the inhibition was 0.88%.
`CC(C)(N)Cc1ccccc1` gave an inhibition of 1.17%.
`CS[C@H]1SC[C@H]2C(=O)N(C)[C@@H](C(C)C)C(=O)OC[C@@H](NC(=O)c3cnc4ccccc4n3)C(=O)N[C@@H](C)C(=O)N(C)[C@@H]1C(=O)N(C)[C@@H](C(C)C)C(=O)OC[C@@H](NC(=O)c1cnc3ccccc3n1)C(=O)N[C@@H](C)C(=O)N2C` gave an inhibition of 41.8%.
For `CN(C)CC[C@H](CSc1ccccc1)Nc1ccc(S(=O)(=O)NC(=O)c2ccc(N3CCN(Cc4ccccc4-c4ccc(Cl)cc4)CC3)cc2)cc1[N+](=O)[O-]`, the inhibition was 10.5%.
For `C[C@]12CCC(=O)C=C1CC[C@@H]1[C@@H]2[C@@H](O)C[C@@]2(C)[C@H]1CC[C@]2(O)C(=O)COC(=O)CCC(=O)O`, the inhibition was 9.68%.
`COc1ccc(Cc2nccc3cc(OC)c(OC)cc23)cc1OC` gave an inhibition of 5.5%.
`COc1cc(C(=O)NCCCCCC(=O)O)cc(OC)c1OC` gave an inhibition of 1.54%.
With `O=c1ccc2ccccc2[nH]1` the inhibition was -2.15%.
`CC(C)(C)C(=O)C(=Nc1ccc(Cl)cc1)NNc1ccc(Cl)cc1` has an inhibition of -6.19%.
For `CCN(CC)C(=O)[C@]1(c2ccccc2)C[C@@H]1CN` (racemic), the inhibition was 6.99%.
With `CN(C)C(=N)NC(=N)N` the inhibition was 0.61%.
The inhibition of `COC(=O)C1=C(C)NC(C)=C(C(=O)OCCN(C)Cc2ccccc2)C1c1cccc([N+](=O)[O-])c1` (stereo not drawn) is reported as 1.52%.
`CCNC(=O)NS(=O)(=O)c1sc(CC(C)C)cc1-c1ccc(Cn2c(-c3ccccc3)nc(OC)c2C=O)cc1` gave an inhibition of 8.16%.
With `O[C@H]1[C@H]2[C@H](O)CCCN2C[C@H]1O` the inhibition was -0.69%.
`Cc1nccn1CCC(C(N)=O)(c1ccccc1)c1ccccc1` gave an inhibition of 4.34%.

Study 2
Target: Histone acetyltransferase KAT6A, winged helix 1, GST fusion (KAT6A, Homo sapiens, UniProt Q92794, residues 1-85)
Technique: protein binding microarray
Form: double-stranded DNA, one strand shown
Sample: in vitro
Concentration: not given
Setting: 8-mer, flanks averaged, mean of 2 arrays, mostly near background
Baseline: not given
Direction: higher = stronger binding
Target sequence (chain): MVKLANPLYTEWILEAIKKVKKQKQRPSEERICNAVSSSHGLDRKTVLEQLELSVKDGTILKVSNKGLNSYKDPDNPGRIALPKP
`CCTGATCG` gave an E-score of 0.0361.
`CAACGATC` gave an E-score of -0.114.
The E-score of `TCACAAGA` is reported as -0.137.
For `AACCTTGT`, the E-score was -0.0122.
`CGTACGTC` gave an E-score of 0.0677.
With `ACTACGGA` the E-score was 0.22.
For `GGAGTGTA`, the E-score was 0.109.
The E-score of `AATCCGCC` is reported as 0.265.

Study 3
Target: PABPC1L2, full length, GST fusion (mouse, UniProt A0ABA7IW68)
Technique: RNAcompete
Form: RNA
Sample: in vitro
Concentration: 20 nM
Setting: 7-mer, probes averaged, single round
Baseline: mean of 7-mers
Direction: higher = stronger binding
Residues (chain): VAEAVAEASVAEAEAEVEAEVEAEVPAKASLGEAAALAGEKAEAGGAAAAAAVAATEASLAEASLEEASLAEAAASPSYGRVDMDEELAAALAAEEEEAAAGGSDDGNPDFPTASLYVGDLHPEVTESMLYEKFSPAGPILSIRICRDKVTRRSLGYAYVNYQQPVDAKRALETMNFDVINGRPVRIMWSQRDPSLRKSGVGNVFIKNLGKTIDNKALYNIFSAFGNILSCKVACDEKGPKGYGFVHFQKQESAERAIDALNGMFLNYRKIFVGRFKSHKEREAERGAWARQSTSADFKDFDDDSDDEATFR
`UCGAUUA` has a 7-mer Z-score of -0.161.
For `CCAAGUU`, the 7-mer Z-score was -0.28.
With `AUGUGGA` the 7-mer Z-score was 0.249.
`UGGCAAU` gave a 7-mer Z-score of -0.0971.
The 7-mer Z-score of `UAGAGGA` is reported as 0.0279.

Study 4
Cell line: HEK-293T/ACE2
Effect on: pseudovirus infection
Organism: VSV pseudotyped with SARS-CoV-2 spike
Concentration: 10 µM
Time: 16 h
Baseline: vehicle-treated
For `CNC(=C[N+](=O)[O-])NCCSCc1csc(CN(C)C)n1`, the GFP-positive cells was 82.3%.
For `CN(CCOc1ccc(CC2SC(=O)NC2=O)cc1)c1ccccn1` (stereo not drawn), the GFP-positive cells was 74.2%.
`O=C1[C@H](CC[C@H](O)c2ccc(F)cc2)[C@@H](c2ccc(O)cc2)N1c1ccc(F)cc1` has a GFP-positive cells of 76.5%.
With `CCCCC[C@H](O)/C=C/[C@H]1[C@H](O)CC(=O)[C@@H]1CCCCCCC(=O)O` the GFP-positive cells was 68.7%.

Study 5
Target: Replicase polyprotein 1ab, main protease (rep, Severe acute respiratory syndrome coronavirus 2, UniProt P0DTD1)
Effect on: enzyme activity
Mode: inhibitor
Concentration: 20 µM
Setting: hit confirmation
`COc1cccc(C(=O)CCN[C@@H](C)[C@H](O)c2ccccc2)c1` has an inhibition of 90.5%.
The inhibition of `NCc1c[nH]c(=S)n1[C@H]1CCc2c(F)cc(F)cc2C1` is reported as 57.3%.
For `S=C(OC1CC2CC1C1CCCC21)[S][K]` (stereo not drawn), the inhibition was 41.4%.
The inhibition of `CC(=O)O/N=C1/C(=O)N(Cc2cc(Cl)ccc2Cl)c2ccc(Cl)cc21` is reported as 66.6%.

For quick reference, copied from above (study 2):
The E-score of `AATCCGCC` is reported as 0.265.
With `ACTACGGA` the E-score was 0.22.
`CAACGATC` gave an E-score of -0.114.
`CGTACGTC` gave an E-score of 0.0677.
`CCTGATCG` gave an E-score of 0.0361.
For `AACCTTGT`, the E-score was -0.0122.
The E-score of `TCACAAGA` is reported as -0.137.
